Assay results of several laboratories.
Lines come from different studies, so protocols differ. ± marks the error that the study gave.
UniProt P02699, sequence (whole entry, looked up): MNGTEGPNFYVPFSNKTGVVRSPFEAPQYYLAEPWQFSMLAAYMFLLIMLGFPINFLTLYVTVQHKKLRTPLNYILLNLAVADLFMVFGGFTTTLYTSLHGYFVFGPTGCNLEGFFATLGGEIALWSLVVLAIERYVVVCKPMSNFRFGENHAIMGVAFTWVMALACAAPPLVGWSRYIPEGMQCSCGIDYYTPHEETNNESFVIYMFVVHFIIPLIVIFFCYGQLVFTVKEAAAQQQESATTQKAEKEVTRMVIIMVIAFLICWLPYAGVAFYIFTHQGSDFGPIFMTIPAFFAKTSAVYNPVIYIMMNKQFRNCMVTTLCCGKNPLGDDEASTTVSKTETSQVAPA
UniProt P0C0V0, sequence (whole entry, unmodified, looked up): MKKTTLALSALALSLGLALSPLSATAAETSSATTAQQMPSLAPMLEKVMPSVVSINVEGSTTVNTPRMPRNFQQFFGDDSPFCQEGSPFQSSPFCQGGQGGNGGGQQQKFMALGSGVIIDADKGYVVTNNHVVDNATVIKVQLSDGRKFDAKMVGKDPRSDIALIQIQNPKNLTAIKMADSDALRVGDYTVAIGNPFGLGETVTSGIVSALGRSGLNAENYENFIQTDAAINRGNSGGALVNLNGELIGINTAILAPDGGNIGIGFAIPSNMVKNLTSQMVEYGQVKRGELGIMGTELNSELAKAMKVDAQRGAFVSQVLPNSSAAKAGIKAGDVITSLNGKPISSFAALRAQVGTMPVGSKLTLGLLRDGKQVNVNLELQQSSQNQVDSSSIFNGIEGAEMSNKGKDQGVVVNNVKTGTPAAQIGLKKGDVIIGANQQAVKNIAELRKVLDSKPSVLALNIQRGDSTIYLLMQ
UniProt E2JF22, sequence (whole entry, looked up): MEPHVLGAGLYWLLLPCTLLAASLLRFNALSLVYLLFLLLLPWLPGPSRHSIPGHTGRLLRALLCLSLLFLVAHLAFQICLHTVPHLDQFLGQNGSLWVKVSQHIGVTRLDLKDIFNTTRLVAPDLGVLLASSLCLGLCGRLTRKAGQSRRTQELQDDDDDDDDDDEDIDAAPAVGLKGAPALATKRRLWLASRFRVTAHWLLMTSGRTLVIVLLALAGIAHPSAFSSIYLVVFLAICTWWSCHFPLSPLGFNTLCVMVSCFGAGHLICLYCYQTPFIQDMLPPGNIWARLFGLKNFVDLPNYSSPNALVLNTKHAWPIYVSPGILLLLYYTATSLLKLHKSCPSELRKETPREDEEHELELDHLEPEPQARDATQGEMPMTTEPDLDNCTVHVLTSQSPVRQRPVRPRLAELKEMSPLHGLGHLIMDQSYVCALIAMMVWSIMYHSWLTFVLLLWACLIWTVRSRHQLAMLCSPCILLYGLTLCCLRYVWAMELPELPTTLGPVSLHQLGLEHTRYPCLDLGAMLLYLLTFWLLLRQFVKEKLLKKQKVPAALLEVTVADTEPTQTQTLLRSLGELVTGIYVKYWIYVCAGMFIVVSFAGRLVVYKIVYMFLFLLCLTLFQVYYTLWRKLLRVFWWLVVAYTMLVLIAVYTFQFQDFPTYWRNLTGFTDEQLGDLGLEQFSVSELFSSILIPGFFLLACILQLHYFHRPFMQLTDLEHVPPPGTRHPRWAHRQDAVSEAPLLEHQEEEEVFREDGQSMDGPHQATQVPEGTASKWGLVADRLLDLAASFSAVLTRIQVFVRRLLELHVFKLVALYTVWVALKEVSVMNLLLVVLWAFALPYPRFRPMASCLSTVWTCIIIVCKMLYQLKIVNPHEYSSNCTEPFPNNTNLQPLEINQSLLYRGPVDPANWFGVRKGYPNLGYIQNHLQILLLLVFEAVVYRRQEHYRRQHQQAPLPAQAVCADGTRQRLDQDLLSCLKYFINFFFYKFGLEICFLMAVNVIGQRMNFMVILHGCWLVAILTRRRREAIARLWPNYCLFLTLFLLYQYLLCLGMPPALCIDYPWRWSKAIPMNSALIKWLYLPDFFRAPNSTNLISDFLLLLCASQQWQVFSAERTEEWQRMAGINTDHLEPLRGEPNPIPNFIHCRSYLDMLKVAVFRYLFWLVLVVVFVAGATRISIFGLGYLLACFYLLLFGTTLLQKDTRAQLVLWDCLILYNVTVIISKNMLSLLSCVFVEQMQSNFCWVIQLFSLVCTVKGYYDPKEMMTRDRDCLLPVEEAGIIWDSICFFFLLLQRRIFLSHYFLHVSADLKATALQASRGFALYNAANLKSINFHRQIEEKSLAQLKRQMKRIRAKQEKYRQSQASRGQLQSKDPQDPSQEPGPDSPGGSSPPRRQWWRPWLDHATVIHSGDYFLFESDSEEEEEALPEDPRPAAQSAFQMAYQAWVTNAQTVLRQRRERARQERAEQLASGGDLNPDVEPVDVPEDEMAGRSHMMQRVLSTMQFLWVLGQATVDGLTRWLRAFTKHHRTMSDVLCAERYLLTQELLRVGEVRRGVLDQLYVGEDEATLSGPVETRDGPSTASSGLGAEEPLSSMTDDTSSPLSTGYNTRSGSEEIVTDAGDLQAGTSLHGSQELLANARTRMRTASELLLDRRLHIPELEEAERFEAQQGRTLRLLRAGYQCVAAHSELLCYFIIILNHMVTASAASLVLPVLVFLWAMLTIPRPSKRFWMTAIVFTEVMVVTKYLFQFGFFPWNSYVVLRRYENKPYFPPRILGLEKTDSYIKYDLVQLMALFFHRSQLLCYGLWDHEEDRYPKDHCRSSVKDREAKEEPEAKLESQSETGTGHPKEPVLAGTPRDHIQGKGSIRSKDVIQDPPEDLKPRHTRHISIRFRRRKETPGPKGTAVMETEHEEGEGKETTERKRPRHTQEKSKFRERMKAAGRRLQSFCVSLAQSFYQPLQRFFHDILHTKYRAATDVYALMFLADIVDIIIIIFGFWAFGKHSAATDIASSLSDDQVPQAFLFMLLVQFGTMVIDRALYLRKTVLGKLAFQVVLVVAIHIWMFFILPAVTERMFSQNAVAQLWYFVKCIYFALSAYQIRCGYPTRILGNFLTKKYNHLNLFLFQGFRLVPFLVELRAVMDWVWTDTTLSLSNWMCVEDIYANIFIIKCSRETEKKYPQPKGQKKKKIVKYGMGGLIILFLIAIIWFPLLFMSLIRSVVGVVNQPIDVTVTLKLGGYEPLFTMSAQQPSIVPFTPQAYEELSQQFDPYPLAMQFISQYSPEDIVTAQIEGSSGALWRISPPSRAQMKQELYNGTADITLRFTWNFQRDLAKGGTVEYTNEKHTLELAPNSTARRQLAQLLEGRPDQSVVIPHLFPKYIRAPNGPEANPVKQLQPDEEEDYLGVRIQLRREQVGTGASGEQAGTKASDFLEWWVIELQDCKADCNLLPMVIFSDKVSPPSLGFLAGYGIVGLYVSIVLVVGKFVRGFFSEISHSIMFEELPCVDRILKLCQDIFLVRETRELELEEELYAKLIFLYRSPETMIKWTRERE
UniProt P56817, sequence (whole entry, looked up): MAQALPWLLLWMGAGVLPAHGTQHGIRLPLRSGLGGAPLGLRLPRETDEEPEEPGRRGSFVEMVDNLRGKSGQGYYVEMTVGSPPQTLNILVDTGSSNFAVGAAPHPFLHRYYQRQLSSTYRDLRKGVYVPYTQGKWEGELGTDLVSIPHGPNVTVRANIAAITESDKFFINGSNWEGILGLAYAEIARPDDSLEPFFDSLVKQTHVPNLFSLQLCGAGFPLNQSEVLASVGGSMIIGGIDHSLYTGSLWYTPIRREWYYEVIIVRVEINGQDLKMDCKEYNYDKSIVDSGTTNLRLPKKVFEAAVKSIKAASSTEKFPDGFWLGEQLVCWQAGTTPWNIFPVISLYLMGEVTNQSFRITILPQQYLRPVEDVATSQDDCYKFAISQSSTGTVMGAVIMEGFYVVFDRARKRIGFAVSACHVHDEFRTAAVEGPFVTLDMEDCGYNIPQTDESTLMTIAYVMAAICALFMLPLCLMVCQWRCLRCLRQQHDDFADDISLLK

SMILES | target | assay | system | setting | how to read | endpoint | result
C[C@@H](NC(=O)[C@H](Cc1ccccc1)NC(=O)[C@@H](CCCNC(=N)N)NC(=O)[C@H](CCCN)NC(=O)[C@@H]1CNC(=O)c2cc3cc(c2)C(=O)N[C@H](Cc2ccc4ccccc4c2)C(=O)N[C@@H](CO)C(=O)N[C@@H](CC(N)=O)C(=O)N[C@H](Cc2ccc4ccccc4c2)C(=O)N[C@@H](c2ccccc2)C(=O)N[C@@H](CCCCNC3=O)C(=O)N[C@H](Cc2ccccc2)C(=O)N[C@@H](CCC(N)=O)C(=O)N[C@H](CCCNC(=N)N)C(=O)N[C@@H](CCCNC(=N)N)C(=O)N1)C(=O)NCCOCCOCC(=O)NCCOCCOCC(=O)N[C@@H](CCCCNC(=O)c1ccc2c(c1)C(=O)OC21c2ccc(O)cc2Oc2cc(O)ccc21)C(N)=O | PTPN1 (Homo sapiens, UniProt P18031) | fluorescence polarization |  | concentration not given |  | binding | no binding
CCCCCCCCCCCCCCOc1ccc(CP(=O)(O)O)cc1 | Autotaxin (ENPP2, Homo sapiens, UniProt Q13822) | inhibitor |  | 10 µM, 2 h, together with: FS-3 1 µM | baseline: control | remaining activity | 30.4%
CC(C)C[C@@H]1NC(=O)[C@@H](NC(=O)CN)CSSC[C@@H]2NC(=O)[C@@H]3CSSC[C@@H](C(=O)N[C@@H](CC(N)=O)C(=O)N[C@@H](Cc4ccccc4)C(=O)N[C@@H](CO)C(=O)N[C@@H](Cc4ccccc4)C(N)=O)NC(=O)[C@H](CC(C)C)NC(=O)[C@H](CCCCN)NC(=O)[C@H](Cc4ccccc4)NC(=O)[C@H](CC(C)C)NC(=O)[C@H](CCCCN)NC(=O)[C@H](CO)NC(=O)[C@H](CSSC[C@H](NC(=O)[C@H](CCCCN)NC(=O)[C@H](Cc4c[nH]c5ccccc45)NC(=O)[C@H](Cc4c[nH]c5ccccc45)NC(=O)[C@H](Cc4ccccc4)NC(=O)[C@H](CCC(=O)O)NC1=O)C(=O)N[C@@H](CC(N)=O)C(=O)N1CCC[C@H]1C(=O)N[C@@H](CC(N)=O)C(=O)N[C@@H](CC(=O)O)C(=O)N[C@@H](CC(=O)O)C(=O)N[C@@H](CCCCN)C(=O)N3)NC(=O)[C@H](CCCCN)NC(=O)[C@H](CC(C)C)NC(=O)[C@H](CCCCN)NC(=O)[C@@H]1CCCN1C(=O)[C@H](CCCNC(=N)N)NC2=O | Piezo1 (Mus musculus, UniProt E2JF22) | mechanosensitive current, whole-cell patch clamp |  |  |  | dissociation rate constant | 0.1 s⁻¹
CC[C@H](C)[C@H](NC(=O)[C@H](CCC(N)=O)NC(=O)[C@H](CC(C)C)NC(=O)[C@@H](NC(=O)CNC(=O)[C@H](Cc1ccc(O)cc1)NC(=O)[C@H](CC(=O)O)NC(=O)[C@@H](NC(=O)[C@H](CO)NC(=O)CNC(=O)[C@H](CC(=O)O)NC(=O)[C@@H](NC(=O)[C@H](CC(N)=O)NC(=O)[C@H](CCCNC(=N)N)NC(=O)[C@H](CC(N)=O)NC(=O)[C@@H](NC(=O)[C@H](C)NC(=O)[C@H](CCC(N)=O)NC(=O)[C@@H](NC(=O)[C@H](CC(N)=O)NC(=O)[C@H](Cc1ccccc1)NC(=O)[C@H](CC(N)=O)NC(=O)[C@H](CO)NC(=O)[C@H](CCC(=O)O)NC(=O)[C@H](Cc1ccccc1)NC(=O)[C@H](CCCCN)NC(=O)[C@H](C)NC(=O)[C@H](C)NC(=O)[C@H](CO)NC(=O)[C@@H](NC(=O)[C@H](Cc1c[nH]c2ccccc12)NC(=O)[C@H](CC(N)=O)NC(=O)CNC(=O)[C@H](CC(C)C)NC(=O)[C@H](CO)NC(=O)[C@H](Cc1ccc(O)cc1)NC(=O)CNC(=O)[C@H](CCCNC(=N)N)NC(=O)[C@H](Cc1ccc(O)cc1)NC(=O)[C@H](CC(N)=O)NC(=O)[C@@H](N)CC(=O)O)C(C)C)[C@@H](C)O)[C@@H](C)O)[C@@H](C)O)[C@@H](C)O)[C@@H](C)CC)C(=O)O | Periplasmic serine endoprotease DegP (degP, Escherichia coli, UniProt P0C0V0, C83S/C95S/N322C) | FRET |  | 20 µM, together with: protein 500 nM |  | cage assembly half-life | 10.8 ± 1.1 s
CCc1ccc(/C=C/C(=O)c2ccc(N3CCNCC3)cc2)cc1 | Beta-secretase 1 (BACE1, Homo sapiens, UniProt P56817) | enzyme activity, inhibitor, fluorescence |  | 10 µM |  | remaining activity | 61%
N=C(N)SCc1ccc(B(O)O)cc1 | Cathepsin B (CTSB, Homo sapiens, UniProt P07858) | enzyme activity, inhibitor |  | up to 10 µM, together with: Z-FR-AMC 10 µM |  | IC50 | inactive
CC(C)C[C@H](NC(=O)CNC(=O)[C@@H](NC(=O)[C@H](CO)NC(=O)[C@H](CCCCN)NC(=O)[C@H](CC(C)C)NC(=O)C1(NC(=O)[C@H](CCC(=O)O)NC(=O)[C@H](CC(C)C)NC(=O)[C@@H](N)C(C)C)CC(C)(C)N([O])C(C)(C)C1)C(C)C)C(=O)N[C@@H](Cc1ccccc1)C(=O)O | Rhodopsin, photoactivated (Meta II) (RHO, Bos taurus, UniProt P02699) | EPR |  |  |  | dissociation time constant | 8 min
CCN(Cc1ccccc1)C(=O)CCc1nc(CN2CCN(C(=O)Cc3ccc(OC)c(OC)c3)CC2)no1 | Sodium channel protein type 11 subunit alpha (Scn11a, Rattus norvegicus, UniProt O88457) | whole-cell patch clamp | rat DRG neurons | 3 µM |  | V1/2 of activation | -39.5 ± 1.24 mV

Excerpt of the above:
SMILES | target | assay | system | setting | how to read | endpoint | result
N=C(N)SCc1ccc(B(O)O)cc1 | Cathepsin B (CTSB, Homo sapiens, UniProt P07858) | enzyme activity, inhibitor |  | up to 10 µM, together with: Z-FR-AMC 10 µM |  | IC50 | inactive
